# Results pooled from the literature.
# Lines come from different studies, so protocols differ. ± gives the spread as reported. Square brackets hold non-standard residues; d marks the D form. Ends that are not written are not given here.
# ACTA1: ACTA1, pyrene label (Oryctolagus cuniculus, UniProt P68135)
# T1: STAG2/RAD21 STAG2 80-1060, RAD21 281-420 (Homo sapiens); chain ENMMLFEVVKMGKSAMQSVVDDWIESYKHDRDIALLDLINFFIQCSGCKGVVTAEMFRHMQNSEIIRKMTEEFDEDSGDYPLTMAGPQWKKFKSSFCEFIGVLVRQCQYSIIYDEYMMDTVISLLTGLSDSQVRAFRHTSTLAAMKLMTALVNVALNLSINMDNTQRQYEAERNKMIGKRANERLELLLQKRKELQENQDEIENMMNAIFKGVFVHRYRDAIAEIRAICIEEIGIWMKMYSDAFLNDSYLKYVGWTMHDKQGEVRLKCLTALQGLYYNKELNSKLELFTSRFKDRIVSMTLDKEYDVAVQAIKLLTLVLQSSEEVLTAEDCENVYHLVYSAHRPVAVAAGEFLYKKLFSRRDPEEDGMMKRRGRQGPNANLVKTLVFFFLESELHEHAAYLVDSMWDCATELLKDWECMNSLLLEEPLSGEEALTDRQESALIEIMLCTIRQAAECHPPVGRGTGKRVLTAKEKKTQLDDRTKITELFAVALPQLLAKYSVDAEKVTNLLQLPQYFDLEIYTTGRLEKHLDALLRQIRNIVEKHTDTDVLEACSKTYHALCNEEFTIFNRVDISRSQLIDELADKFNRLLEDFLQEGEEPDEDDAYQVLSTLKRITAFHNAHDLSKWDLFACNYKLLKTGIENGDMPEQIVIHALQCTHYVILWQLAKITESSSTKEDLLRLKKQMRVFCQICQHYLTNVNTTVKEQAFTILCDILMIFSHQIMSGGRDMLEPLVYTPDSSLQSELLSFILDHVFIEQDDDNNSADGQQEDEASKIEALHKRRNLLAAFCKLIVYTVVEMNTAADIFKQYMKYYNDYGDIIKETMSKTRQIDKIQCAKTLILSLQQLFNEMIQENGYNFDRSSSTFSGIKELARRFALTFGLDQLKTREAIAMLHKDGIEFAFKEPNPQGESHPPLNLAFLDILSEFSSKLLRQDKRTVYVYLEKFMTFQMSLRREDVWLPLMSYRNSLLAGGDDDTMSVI; chain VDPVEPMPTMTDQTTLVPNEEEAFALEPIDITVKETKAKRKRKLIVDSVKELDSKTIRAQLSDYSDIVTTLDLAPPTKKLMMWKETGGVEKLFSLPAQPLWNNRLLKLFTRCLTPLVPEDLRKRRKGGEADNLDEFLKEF
# T2: Psmc3ip/Mnd1 K63A/Y65A/K67A/R64A/Y70A/Y71A (Mus musculus); chain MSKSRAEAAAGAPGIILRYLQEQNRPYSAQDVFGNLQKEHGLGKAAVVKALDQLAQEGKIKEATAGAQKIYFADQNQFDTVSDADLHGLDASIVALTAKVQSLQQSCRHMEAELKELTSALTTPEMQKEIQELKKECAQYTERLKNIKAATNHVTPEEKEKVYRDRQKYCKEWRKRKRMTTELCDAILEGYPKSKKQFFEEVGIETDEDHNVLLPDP; chain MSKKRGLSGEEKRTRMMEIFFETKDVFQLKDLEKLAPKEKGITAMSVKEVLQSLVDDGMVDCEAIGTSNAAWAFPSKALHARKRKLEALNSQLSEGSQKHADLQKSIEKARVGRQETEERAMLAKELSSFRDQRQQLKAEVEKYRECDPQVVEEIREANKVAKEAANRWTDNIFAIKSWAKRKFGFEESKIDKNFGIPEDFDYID
# B1: kaiA (Synechococcus elongatus, UniProt Q79PF6); chain MLSQIAICIWVESTAILQDCQRALSADRYQLQVCESGEMLLEYAQTHRDQIDCLILVAANPSFRAVVQQLCFEGVVVPAIVVGDRDSEDPDEPAKEQLYHSAELHLGIHQLEQLPYQVDAALAEFLRLAPVETMADHIMLMGANHDPELSSQQRDLAQRLQERLGYLGVYYKRDPDRFLRNLPAYESQKLHQAMQTSYREIVLSYFSPNSNLNQSIDNFVNMAFFADVPVTKVVEIHMELMDEFAKKLRVEGRSEDILLDYRLTLIDVIAHLCEMYRRSIPRET
# B2: protein (Escherichia coli, UniProt P52126); chain MTEIYEQAKHSLQGEDFSSFNYLFAVNKLLSNPVSYDLGRDLIVRALDSRERFSEHTTILKNMVRKSGLFPYLKKEFTSLTPDDLRVLELYRTPFSDGYVFHSMQFHIFDLLKSGQNVVLSAPTSMGKSAIVDSLLGMGTLKRLVLVVPTVALADETRRRLQERFGDRYQIIHHSSQVCHSDQAVYVLTQERVNERDDIVDIDLFVIDEFYKLAFRQLKSGDIDHQDERVIELNIALSKLLKVSRQFYLTGPFVNSIRGLEKLGYPHTFVSTDFNTVALDVKTFGIKANDDKAKLKALGEIAHACVDATIIYCKSPTVAGLVARELIRLGHGTPTENPHVDWVSEEFDADWDYTVALRNGIGLHFGALPRALQQYTADQFNAGKLRFLLCTSTIIEGVNTIAKNVVIYDNRDGTRSIDKFTHGNIKGRAGRMGVHFVGKIFCLEEIPEDNLNQEVDIPLGIQGIDTPINLLASVQPDHLSEFSQDRFDEVFINDRVSIDLVKKHSYFRVEQFEMLQSMFEMMDDNEFSSLVFHWTPATNFLKTFAKIIARLVPHTFSRNGVPVKPTDVMIAKLAGYLSAESYSEYLKNQIDYARQWISEGEKRTLSIALNNDLKLITNTFGYTLPKVLSLMEDVVKHHAVKRGIRSKVDYTHVKLAFESFHLPPGVNALEEIGIPIQTLHRLVDLLEFSDEADVDELSQYLRDTQDIWSRSIGYVDQMFIRRALGIRRH
# B3: Nde1 (Mus musculus, UniProt Q9CZA6); phosphorylated by Cdk1; sequence looked up; chain MEDSGKTFESEEEETNYWRDLAMTYKQRAENTQEELREFQEGSREYEAELEAQLQQIETRNRDLLSENNRLRMELESVKEKFEMQHSEGYRQISALEDDLAQTKAIKDQLQKYIRELEQANDDLERAKRATIMSLEDFEQRLNQAIERNAFLESELDEKENLLESVQRLKDEARDLRQELAVQQKQDKPRTPMPGSGQAKRTDMAVQATGSVPSTPVAHRGPSSGLNTPGMFRRGLDSSTSGTPLTPAARISALNIVGDLLRKVGALESKLASCRNFMYDQSPSRTSGPASGRGTKNRDGVDRRPGSTSVGDKGSGKRLEFGKPASEPASPALPSAQGVVKLLL
# B4: Fmnl3 555-954 Q746A (Mus musculus, UniProt Q6ZPF4); chain GLSAIRIKKPIKTKFRLPVFNWTALKPNQINGTVFSELDDEKILEDLDLDRFEELFKTKAQGPALDLICSKNKTAQKAASKVTLLEANRAKNLAITLRKAGRSAEEICRAIHTFDLQTLPVDFVECLMRFLPTEAEVKLLRQYERERQPLEELAAEDRFMLLFSKVERLTQRMAGMAFLGNFQDNLQMLTPALNAIIAASASVKSSQKLKQMLEIILALGNYMNSSKRGAVYGFKLQSLDLLLDTKSTDRKMTLLHFIALTVKEKYPELANFWQELHFVEKAAAVSLENVLLDVKELGRGMELIRRECSIHDNSVLRNFLSTNEGKLDKLQRDAKTAEEAYNAVVRYFGESPKTTPPSVFFPVFVRFIRSYKEAEQENEARKKQEEVMREKQLAQEAKKL
# B5: Fmnl3 555-954 K800A (Mus musculus, UniProt Q6ZPF4); chain GLSAIRIKKPIKTKFRLPVFNWTALKPNQINGTVFSELDDEKILEDLDLDRFEELFKTKAQGPALDLICSKNKTAQKAASKVTLLEANRAKNLAITLRKAGRSAEEICRAIHTFDLQTLPVDFVECLMRFLPTEAEVKLLRQYERERQPLEELAAEDRFMLLFSKVERLTQRMAGMAFLGNFQDNLQMLTPQLNAIIAASASVKSSQKLKQMLEIILALGNYMNSSKRGAVYGFKLQSLDLLLDTASTDRKMTLLHFIALTVKEKYPELANFWQELHFVEKAAAVSLENVLLDVKELGRGMELIRRECSIHDNSVLRNFLSTNEGKLDKLQRDAKTAEEAYNAVVRYFGESPKTTPPSVFFPVFVRFIRSYKEAEQENEARKKQEEVMREKQLAQEAKKL
# B6: DMC1 (Homo sapiens, UniProt Q14565); chain MKEDQVVAEEPGFQDEEESLFQDIDLLQKHGINVADIKKLKSVGICTIKGIQMTTRRALCNVKGLSEAKVDKIKEAANKLIEPGFLTAFEYSEKRKMVFHITTGSQEFDKLLGGGIESMAITEAFGEFRTGKTQLSHTLCVTAQLPGAGGYPGGKIIFIDTENTFRPDRLRDIADRFNVDHDAVLDNVLYARAYTSEHQMELLDYVAAKFHEEAGIFKLLIIDSIMALFRVDFSGRGELAERQQKLAQMLSRLQKISEEYNVAVFVTNQMTADPGATMTFQADPKKPIGGHILAHASTTRISLRKGRGELRIAKIYDSPEMPENEATFAITAGGIGDAKE
# B7: colicin N T and R domains (Escherichia coli); chain MGSNGADNAHNNAFGGGKNPGIGNTSGAGSNGSASSNRGNSNGWSWSNKPHKNDGFHSDGSYHITFHGDNNSKPKPGGNSGNRGNNGDGASAKVGEITITPDNSKPGRYISSNPEYSLLAKLIDAESIKGTEVYTFHTRKGQYVKVTVPDSNIDKMRVDYVNWKGPKYNNKLVKRFVSQFLL
# Chain of UniProt P95980 (whole entry, looked up): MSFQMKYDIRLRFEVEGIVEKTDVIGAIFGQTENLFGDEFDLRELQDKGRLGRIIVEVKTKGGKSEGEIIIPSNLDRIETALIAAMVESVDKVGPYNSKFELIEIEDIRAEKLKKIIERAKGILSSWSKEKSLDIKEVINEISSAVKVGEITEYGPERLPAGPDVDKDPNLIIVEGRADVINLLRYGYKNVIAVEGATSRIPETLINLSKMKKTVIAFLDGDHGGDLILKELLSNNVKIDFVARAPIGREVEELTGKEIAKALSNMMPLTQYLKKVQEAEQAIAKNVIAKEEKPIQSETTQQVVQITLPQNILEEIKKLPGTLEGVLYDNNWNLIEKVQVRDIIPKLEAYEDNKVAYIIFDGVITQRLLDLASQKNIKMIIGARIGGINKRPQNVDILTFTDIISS
# Chain of UniProt P78310 (whole entry, looked up): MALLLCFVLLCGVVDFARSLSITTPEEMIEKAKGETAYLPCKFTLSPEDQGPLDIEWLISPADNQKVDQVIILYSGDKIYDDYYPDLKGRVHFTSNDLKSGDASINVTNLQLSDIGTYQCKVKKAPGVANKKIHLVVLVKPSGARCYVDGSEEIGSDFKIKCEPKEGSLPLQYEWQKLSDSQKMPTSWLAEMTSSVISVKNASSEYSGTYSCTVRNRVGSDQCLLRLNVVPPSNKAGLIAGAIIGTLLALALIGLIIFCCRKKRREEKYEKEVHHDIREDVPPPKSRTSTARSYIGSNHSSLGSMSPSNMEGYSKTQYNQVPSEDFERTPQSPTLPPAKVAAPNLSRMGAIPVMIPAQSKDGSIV
# Chain of UniProt P49454 (whole entry, looked up): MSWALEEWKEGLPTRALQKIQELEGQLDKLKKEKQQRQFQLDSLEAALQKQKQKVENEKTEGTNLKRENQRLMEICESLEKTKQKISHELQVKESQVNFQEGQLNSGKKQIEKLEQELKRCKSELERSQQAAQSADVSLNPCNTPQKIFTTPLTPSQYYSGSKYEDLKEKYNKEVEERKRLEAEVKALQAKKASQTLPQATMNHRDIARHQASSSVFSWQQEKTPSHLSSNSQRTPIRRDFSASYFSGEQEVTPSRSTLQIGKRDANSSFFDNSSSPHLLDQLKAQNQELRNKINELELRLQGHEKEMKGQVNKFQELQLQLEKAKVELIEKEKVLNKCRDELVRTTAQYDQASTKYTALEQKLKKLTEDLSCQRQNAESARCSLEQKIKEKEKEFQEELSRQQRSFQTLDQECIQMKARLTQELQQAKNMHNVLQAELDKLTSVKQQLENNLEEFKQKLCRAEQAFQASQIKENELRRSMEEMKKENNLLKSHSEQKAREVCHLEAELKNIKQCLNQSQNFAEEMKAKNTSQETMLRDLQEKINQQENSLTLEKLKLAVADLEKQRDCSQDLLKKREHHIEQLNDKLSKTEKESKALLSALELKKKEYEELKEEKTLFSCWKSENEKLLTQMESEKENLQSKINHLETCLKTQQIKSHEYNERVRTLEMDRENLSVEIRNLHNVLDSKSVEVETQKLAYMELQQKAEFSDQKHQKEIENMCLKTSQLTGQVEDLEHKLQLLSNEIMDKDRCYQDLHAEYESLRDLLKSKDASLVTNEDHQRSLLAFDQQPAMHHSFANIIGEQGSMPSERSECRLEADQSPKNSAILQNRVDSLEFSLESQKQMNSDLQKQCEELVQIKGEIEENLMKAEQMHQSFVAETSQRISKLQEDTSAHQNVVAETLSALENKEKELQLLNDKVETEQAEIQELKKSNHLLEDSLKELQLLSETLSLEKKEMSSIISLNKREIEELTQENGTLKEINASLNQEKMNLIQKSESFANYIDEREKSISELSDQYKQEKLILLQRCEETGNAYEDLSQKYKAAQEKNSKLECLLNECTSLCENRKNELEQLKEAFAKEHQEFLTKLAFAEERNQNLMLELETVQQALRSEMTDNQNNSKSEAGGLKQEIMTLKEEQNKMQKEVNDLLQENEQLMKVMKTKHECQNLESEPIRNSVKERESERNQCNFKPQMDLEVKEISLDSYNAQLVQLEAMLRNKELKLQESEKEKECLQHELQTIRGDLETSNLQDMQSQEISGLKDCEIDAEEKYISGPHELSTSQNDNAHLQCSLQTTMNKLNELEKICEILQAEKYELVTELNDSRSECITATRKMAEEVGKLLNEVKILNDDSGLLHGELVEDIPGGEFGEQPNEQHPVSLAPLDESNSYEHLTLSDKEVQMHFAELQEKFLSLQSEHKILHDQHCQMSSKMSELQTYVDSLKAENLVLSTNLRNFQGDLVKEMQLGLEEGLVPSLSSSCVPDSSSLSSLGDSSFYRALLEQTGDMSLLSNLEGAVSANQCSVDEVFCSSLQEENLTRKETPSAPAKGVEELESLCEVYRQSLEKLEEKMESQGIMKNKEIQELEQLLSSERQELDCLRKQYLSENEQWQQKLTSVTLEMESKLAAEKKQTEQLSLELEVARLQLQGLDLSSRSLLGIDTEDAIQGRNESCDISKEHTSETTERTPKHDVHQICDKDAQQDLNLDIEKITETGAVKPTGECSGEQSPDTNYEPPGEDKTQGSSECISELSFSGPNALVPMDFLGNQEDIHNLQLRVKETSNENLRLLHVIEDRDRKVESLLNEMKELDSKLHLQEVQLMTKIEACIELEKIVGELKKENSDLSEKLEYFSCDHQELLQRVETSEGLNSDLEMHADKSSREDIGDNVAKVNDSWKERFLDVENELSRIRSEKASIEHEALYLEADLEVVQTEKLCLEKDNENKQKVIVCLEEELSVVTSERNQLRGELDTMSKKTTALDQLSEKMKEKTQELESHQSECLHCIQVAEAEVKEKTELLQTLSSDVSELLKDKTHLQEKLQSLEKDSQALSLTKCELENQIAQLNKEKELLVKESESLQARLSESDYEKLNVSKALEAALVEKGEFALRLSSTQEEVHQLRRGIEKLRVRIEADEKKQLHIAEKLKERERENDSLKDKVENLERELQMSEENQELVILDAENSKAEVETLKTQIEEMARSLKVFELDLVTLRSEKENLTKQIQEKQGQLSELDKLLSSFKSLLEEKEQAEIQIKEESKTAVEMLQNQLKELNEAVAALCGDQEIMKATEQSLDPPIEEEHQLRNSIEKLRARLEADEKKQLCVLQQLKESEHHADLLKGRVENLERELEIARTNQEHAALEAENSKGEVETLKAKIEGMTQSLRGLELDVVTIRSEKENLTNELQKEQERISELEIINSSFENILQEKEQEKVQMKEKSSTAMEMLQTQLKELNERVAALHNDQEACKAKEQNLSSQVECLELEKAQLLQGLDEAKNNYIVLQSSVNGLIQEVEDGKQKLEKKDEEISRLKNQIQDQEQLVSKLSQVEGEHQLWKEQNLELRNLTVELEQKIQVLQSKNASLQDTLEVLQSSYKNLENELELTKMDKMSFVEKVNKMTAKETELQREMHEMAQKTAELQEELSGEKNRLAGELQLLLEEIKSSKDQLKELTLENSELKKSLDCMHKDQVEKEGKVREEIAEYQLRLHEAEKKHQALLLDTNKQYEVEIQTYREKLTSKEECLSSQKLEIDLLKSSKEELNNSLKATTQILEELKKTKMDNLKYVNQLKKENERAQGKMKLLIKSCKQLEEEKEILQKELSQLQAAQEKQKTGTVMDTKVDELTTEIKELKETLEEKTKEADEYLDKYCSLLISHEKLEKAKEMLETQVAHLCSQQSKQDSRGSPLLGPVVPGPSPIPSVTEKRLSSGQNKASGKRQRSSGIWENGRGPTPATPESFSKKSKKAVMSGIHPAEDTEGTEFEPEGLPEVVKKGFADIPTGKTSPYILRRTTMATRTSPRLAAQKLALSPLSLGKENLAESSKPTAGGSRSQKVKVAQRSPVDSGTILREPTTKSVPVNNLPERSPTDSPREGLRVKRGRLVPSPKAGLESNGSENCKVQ
# Chain of UniProt P02931 (whole entry, unmodified, looked up): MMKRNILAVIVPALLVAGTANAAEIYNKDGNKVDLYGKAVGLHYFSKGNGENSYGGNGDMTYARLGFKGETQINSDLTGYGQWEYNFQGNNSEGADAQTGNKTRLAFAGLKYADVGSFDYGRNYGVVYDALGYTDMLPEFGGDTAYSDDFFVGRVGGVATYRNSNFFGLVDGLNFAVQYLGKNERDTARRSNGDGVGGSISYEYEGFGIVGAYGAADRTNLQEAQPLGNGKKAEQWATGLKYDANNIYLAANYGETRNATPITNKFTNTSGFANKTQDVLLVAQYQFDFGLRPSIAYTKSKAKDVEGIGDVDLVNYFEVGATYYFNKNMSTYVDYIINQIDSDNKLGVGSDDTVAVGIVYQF
# Chain of UniProt Q9EP73 (whole entry, looked up): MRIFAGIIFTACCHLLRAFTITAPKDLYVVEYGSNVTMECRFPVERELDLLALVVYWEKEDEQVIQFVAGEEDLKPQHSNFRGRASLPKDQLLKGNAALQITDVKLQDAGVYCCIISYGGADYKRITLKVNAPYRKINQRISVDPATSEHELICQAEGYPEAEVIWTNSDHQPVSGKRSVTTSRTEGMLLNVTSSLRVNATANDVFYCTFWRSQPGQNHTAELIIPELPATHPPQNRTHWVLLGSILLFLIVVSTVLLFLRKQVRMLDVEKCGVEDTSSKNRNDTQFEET
Molecule,partner,test,test system,setting,how to read,measurement,value
B1 (kaiA),"kaiC 1-519 E352Q (Synechococcus elongatus, UniProt Q79PF4)","priming phosphorylation, SDS-PAGE",,"0.2 mg/mL, 30 °C, together with: KaiA 0.04 mg/mL",higher = faster,rate constant k1,0.12 h⁻¹
B2 (protein),"hamA (Escherichia coli, UniProt P52127)",cryo-EM,,,,molecule per partner,1
"dnaG (Saccharolobus solfataricus, UniProt P95980)","rrp41/rrp42/rrp4/csl4 exosome, heteromeric cap (Saccharolobus solfataricus)",pull-down,,,,binding,binds
"CD24/Siglec-10 blocking peptide, D-amino acids","Cd274 (Mus musculus, UniProt Q9EP73)","competition with ligand, flow cytometry",,in cells,,IC50,55.6 µM
"rpoS (Escherichia coli, UniProt P13445)",rpoB/rpoC core RNA polymerase (Escherichia coli),pausing efficiency,,consensus TEC,,apparent Kd,0.32 µM
"SNDAYNFNLEEGVHL[pT]PFR (SGO1 331-349 (Homo sapiens, UniProt Q5FBB7); pT346; pT = C[C@@H](OP(=O)(O)O)[C@H](N)C(=O)O)","T1, STAG2/RAD21 STAG2 80-1060, RAD21 281-420 (Homo sapiens)",ITC,peptide,"pH 7.7, 25 °C, NaCl 150 mM",,ΔH,-83.7 kJ/mol
"adenovirus type 5 whole particle (human adenovirus type 5, UniProt P11818)","CXADR (Homo sapiens, UniProt P78310)",qPCR,,,"reference: input virus, higher = more bound",virus bound to erythrocytes,90%
B3 (Nde1),"CENPF 2122-2297 (Homo sapiens, UniProt P49454)",pull-down,,Cdk1/CyclinB phosphorylated,"reference: dephospho-Nde1, higher = more bound",relative binding,2.5 fold
B4 (Fmnl3 555-954 Q746A),ACTA1,elongation termination,,"formin 100 nM, together with: capping protein 20 nM",,capping protein protection time,350 s
BUD4 fragment (Saccharomyces cerevisiae),"IQG1 1-823 (Saccharomyces cerevisiae, UniProt Q12280)",two-hybrid,,,higher = stronger interaction,beta-galactosidase activity,502.93 ± 0.5 Miller units
ACE2/ALB albumin fusion (Homo sapiens),"FCGRT (Homo sapiens, UniProt P55899)",serum sandwich ELISA,hFcRn+/+ hAlb+/+ transgenic mice,"4 mg/kg, in vivo, intravenous",,elimination half-life,13.5 h
B5 (Fmnl3 555-954 K800A),ACTA1,"inhibition of filament elongation, inhibitor, pyrene-actin assay",,,,IC50,0.0083 µM
"DVKLEFFGFEDHETGGDEGGSGSSNYKIKYFGFDDLSESED (WAPL 423-463 (Homo sapiens, UniProt Q7Z5K2))","T1, STAG2/RAD21 STAG2 80-1060, RAD21 281-420 (Homo sapiens)",ITC,peptide,"pH 7.7, 25 °C, NaCl 150 mM",,ΔH,-27.9 kJ/mol
B6 (DMC1),"T2, Psmc3ip/Mnd1 K63A/Y65A/K67A/R64A/Y70A/Y71A (Mus musculus)",pull-down,,,,binding,binds
B7 (colicin N T and R domains),"ompF mature, trimer (Escherichia coli, UniProt P02931)",ITC,,,,ΔH,-72.3 kJ/mol

# Excerpt of the above:
Molecule,partner,test,test system,setting,how to read,measurement,value
ACE2/ALB albumin fusion (Homo sapiens),"FCGRT (Homo sapiens, UniProt P55899)",serum sandwich ELISA,hFcRn+/+ hAlb+/+ transgenic mice,"4 mg/kg, in vivo, intravenous",,elimination half-life,13.5 h
